Assay results from different studies.
Every numbered part comes from another study and shows a few of its results, in no order.

Sample 1
Target: PABPC1L2, full length, GST fusion (mouse, UniProt A0ABA7IW68)
Method: RNAcompete
Form: RNA
Medium: in vitro
Tested at: 20 nM
Notes: 7-mer, probes averaged, single round
Reference: mean of 7-mers
Direction: higher = stronger binding
Construct (chain): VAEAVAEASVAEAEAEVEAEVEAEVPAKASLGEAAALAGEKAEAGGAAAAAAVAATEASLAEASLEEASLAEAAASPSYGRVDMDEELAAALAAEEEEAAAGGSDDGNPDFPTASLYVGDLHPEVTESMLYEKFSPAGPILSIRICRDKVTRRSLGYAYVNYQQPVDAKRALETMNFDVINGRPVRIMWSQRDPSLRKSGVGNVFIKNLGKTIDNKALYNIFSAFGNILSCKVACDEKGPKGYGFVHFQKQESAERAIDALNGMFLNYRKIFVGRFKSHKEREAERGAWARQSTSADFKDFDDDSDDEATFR
Oligonucleotide	7-mer Z-score
AAACGUU	0.171
CGCAGGU	-0.126
UGAUUGG	-0.0518
GGAGAGU	-0.19
AAACUAA	1.56
UCCACAU	-0.313
CUCCGAA	-0.208
UAACCGA	0.0334
UUUCUUU	-0.293
ACAUUUG	-0.237
UUCGGGA	-0.0899

Sample 2
Target: Fragile X messenger ribonucleoprotein 1, C-terminal low-complexity region (Fmr1, Mus musculus, UniProt P35922)
Method: RNA Bind-n-Seq
Form: RNA
Medium: in vitro
Tested at: 200 nM
Notes: whole 134-nt RNA, ends assumed
Added: 150 mM LiCl
Reference: input library
Direction: higher = stronger binding
All molecules: 7-deaza-guanosine replaces G
Constant ends, left off below: GGGAGUUCUACAGUCCGACGAUC … UGGAAUUCUCGGGUGUCAAGG
Oligonucleotide	log2 enrichment
UUACCGACACCGUAGAACAGAGCAAGAGGAGGAUGAAGAGCUAUUAACAGAAAGCUCCAAAGCAACCAAUGUUUGCACUCGAUUUGAAGA	0.146
AGUCACUUUUUAAUUUUAUUUAUUAUUUCUCCUCUUAGACCGCAGGAUGGAAACAAGCCCACUGAGACUAGUCAACCUCAAUCUAGCACA	1.87
CAAGUCCUGUGCUACACAUCGUAUGUACCGAAUCGGGGAAAGGGGAAAGGAAAGGGAAAGUAUUAUGUUACGCCGUUCGGAUCUGCACUU	-0.975
CAAGUCCUGUGCUACACAUCGUAUGUACCGAAUCGGUUUUUUUGGUUUUUGGUGGAAAGUAUUAUGUUACGCCGUUCGGAUCUGCACUUC	-1.56
ACCAUGCAGGUGGGCAUCUUUCGGAAGUGGGGCAAGGGGGGGAUAGGGAGGGGGGUAACACUUUGGGAACAGGUGGUCCCAGGUCGUUUC	1.26

Sample 3
Target: Histone acetyltransferase KAT6A, both winged helices, GST fusion (KAT6A, Homo sapiens, UniProt Q92794, residues 1-181)
Method: protein binding microarray
Form: double-stranded DNA, one strand shown
Medium: in vitro
Tested at: not given
Notes: 8-mer, flanks averaged, mean of 2 arrays, mostly near background
Reference: not given
Direction: higher = stronger binding
Construct (chain): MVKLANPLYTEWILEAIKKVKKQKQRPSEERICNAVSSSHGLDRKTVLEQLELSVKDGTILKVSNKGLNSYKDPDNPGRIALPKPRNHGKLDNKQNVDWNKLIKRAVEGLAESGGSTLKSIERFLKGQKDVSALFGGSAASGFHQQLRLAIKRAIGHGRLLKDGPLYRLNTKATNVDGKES
Oligonucleotide	E-score
ACAATGTG	-0.155
CTATGAGA	-0.246
GACGGCCA	0.176
ACACGGAA	0.245
CAATGTCA	-0.0253
CGACGCAC	0.192
TAATGTAA	-0.0214

Single results of other studies
Substance	target	assay	system	conditions	scale	endpoint	value
PhoQ, residues 284 288 289 292 302 303 SLSLLA	PhoP, residues 12 14 15 18 19 VHTVL (Escherichia coli, UniProt P23836)	Sort-seq, measured: YFP reporter	E. coli	PhoQ-PhoP variant library, added: 10 µM Mg2+	reference: high Mg2+ state, higher = stronger signaling	fold induction	47.2

For quick reference, copied from above (sample 2):
Oligonucleotide	log2 enrichment
CAAGUCCUGUGCUACACAUCGUAUGUACCGAAUCGGGGAAAGGGGAAAGGAAAGGGAAAGUAUUAUGUUACGCCGUUCGGAUCUGCACUU	-0.975
CAAGUCCUGUGCUACACAUCGUAUGUACCGAAUCGGUUUUUUUGGUUUUUGGUGGAAAGUAUUAUGUUACGCCGUUCGGAUCUGCACUUC	-1.56
ACCAUGCAGGUGGGCAUCUUUCGGAAGUGGGGCAAGGGGGGGAUAGGGAGGGGGGUAACACUUUGGGAACAGGUGGUCCCAGGUCGUUUC	1.26
